Experimental data from different studies.
Every numbered part comes from another study and shows a few of its results, in no order.

Study 1
Target: RNA binding protein fox-1 homolog 2, RRM domain, GST-SBP tag (RBFOX2, Homo sapiens, UniProt O43251-10, residues 100-194)
Technique: RNA Bind-n-Seq
Molecule type: RNA
Matrix: in vitro
Concentration: 365 nM
Setting: natural RNA segment, single round, ends assumed
Reference: no-protein control
Direction: higher = stronger binding
Measurement: RBNS enrichment (R)
Shared flanks, not repeated: GGGAGUUCUACAGUCCGACGAUC … UGGAAUUCUCGGGUGCCAA
Residues (chain): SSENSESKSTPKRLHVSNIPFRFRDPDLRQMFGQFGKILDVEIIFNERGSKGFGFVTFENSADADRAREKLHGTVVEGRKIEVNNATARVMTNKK
UUAAAUGAGCUCUUUUGCAGAUAGCACAUUCAGUAGCCUUAUUUUGUUGAUGGAAUACUGUAUCAUAUGCUCAACUCUGAAAACCUUGAACACGGCCAAAAUCCAUAAAG: 0.276
UUGAAGUAAACCUCAGUGCCUGAGACUUUUCUACCAAGCCACACAGCUGCAGCAACUGCAGAUACUGCGGGCUGAGCAGGAGCAGUGGUGGCGCCUGCCCUGAGGCUGCC: 0.276
GUGUCGCUUGUAUGUUAUCGUACAGCUGACAUGUAUUUUUGUCUAUUCUUUAUUAUCUUAGUUUCAUGCUAUGUAUGUACCAUAACCAACCUAUUGCCUAUGAGAAACAU: 0.509
ACUUUUAAGCUUCUAAAUUGAUCAUUUAAACUAUUUCUUUAAAUAAGAGAGCCAAAUUAGAGGCUCAUACUUUAGCUUGUGAAGAAGAUAAUGAAUUUUUUAAAGGGAAC: 1.48
UCCCGCUGCCCACCAACACCAACACACACACACCUCUAAGCUGCUGGCCGAAGAUGUCACCAAGGCCAAAGACACAGUAUUAUGAAGGUUUGGAAACCCCUCUCCUCACC: 1.02
CAAGGAGAGUGGCAUAGGAGGGAAAAGCAUAUGUGGCUGAAACCUGUAAGUUGGUGUUGGUUAUGCAGAAAUGUGUAACAGAUCAAACGGUCCUCUCAAGUGUCUAUUAG: 0.297
CUCUUUUAUAUCUAUUGACAAAGGUGUGGGGUCUGGCAAAUGAAGUGUGCUGUUCUCAGCCUAAGAUGCAGCAGCAGCUCUUCCCACACACGCCCCCAGGUCUCCAGGGU: 0.343
GAGCUGUUGCUGUUGUCAGUCGAGUGCAGUUUUCUGCAGCGAUGUCAUAAGGAGUCAGAUUCCGUGACCUCCUCUUUGAUGGAGGACACACUGAACUGAAGGGGACUUGC: 0.279
AUCCAGGACCACAGUGACACAUUAAAGGAAACUGGCUAAGCAGUGGACUAUCCAAUUCAGGAAGCAGGAAAGCAGCCAGGAAAUGUGCUUCUGUUUUGCCAGUUAUUUCC: 0.466
GCGGGUUGGUGUGUUUUCCCCUUGUGUACCAGAGCACAUUCCUUAGGGGACGGCUUUGGGGGUCCCACGAGACAUGGACUAGGAGUUUAAGCAGGACAGUGUGCGUGCAC: 0.649
CACAGCCCUCAAGAGGCCCCUUUGGAUAGUGGCCCUGCACGAGACUGUGCCUUGAUCAUUUCGGUGACUGAAGAGUCUGACCCCAGAGGCCUUGGGGACCCUUUCUUCUC: 0.241
GGCCUUGGGCAAGUCACUCCCCCUCUCUGAGCUUCAGUAUCCUCCUGUCACAGGAGGGAGUUGGGCUAGAUCAUCUUUAAGGUAGGUUCUAGCUUUGACAUCAUCUUGGG: 0.327

Study 2
Target: Interferon regulatory factor 5, full length, phosphomimetic (IRF5, Homo sapiens, UniProt Q13568-2, residues 1-514, K96S/S451D/S453D/S456D/S462D)
Technique: protein-binding microarray
Molecule type: double-stranded DNA, one strand shown
Matrix: in vitro
Concentration: 250 nM
Setting: 60-bp whole probe
Added: salmon DNA 0.4 mg/ml
Reference: random background probes
Direction: higher = stronger binding
Measurement: log fluorescence
Shared flanks, not repeated: GCCTAGCAC … GTCTTGATTCGCTTGACGCTGCTG
CAGTTTATTTATTTTTACATGTGCTAG: 1.06 z-score
GACGGTCTGGGTATCGGGACGTGCTAG: 0.537 z-score
TCAAGTTTCTCCTTTGTACTGTGCTAG: 2.13 z-score
TTAGGTTTCGTCTTTCGGTTAGTGCTA: 9.68 z-score
GTAGATATCGGGACTGGATTAGTGCTA: 1.12 z-score
TTAGGATCCCTTTTCCTTTAGTGCTAG: 0.417 z-score
TCAATTCTCTACTTGTGACTGTGCTAG: 0.184 z-score
GACGAACTGGGTTTTCGAGACGTGCTA: 0.518 z-score
TCAATTTTGAGACTCATACTGTGCTAG: 0.135 z-score
TCAATTCTCTGCTTCTGACTGTGCTAG: 0.678 z-score
TACGGTATCCTTTTCCTGACGTGCTAG: 0.46 z-score
TTAGATAACAGTCTCGATTAGTGCTAG: 1.1 z-score
TTAGGTTTCGGGACTGGGTTGGTGCTA: 5.84 z-score
GACGGTCTCCGTTTCCTGACGTGCTAG: -0.0337 z-score
TTAGATTTCGGGTTTCGATCAGTGCTA: 8.44 z-score
TCACTTTCACTTCTCCCACTGTGCTAG: 9.23 z-score
GGGCATTTGGTTAGCGTATAGTGCTAG: -0.435 z-score
GACGATTTCAGACTGCAGACGTGCTAG: 0.282 z-score
GACGGACTGGACGCTGGGGACGTGCTA: -0.634 z-score
TCAACTCTCTCCATGTGACTGTGCTAG: -0.0833 z-score
TTAGAACTGGGGTTTCGAATAGTGCTA: 1.49 z-score
GACGAACTGGGGAGTGGAGACGTGCTA: -0.359 z-score
GTAGGTCTCGGTCTCGGTTAGTGCTAG: 0.687 z-score
TCACATATACACTGTGTATCTGTGCTA: 0.693 z-score
TCATCTTTTCTTTTCTTACTGTGCTAG: 1.73 z-score

Study 3
Target: Centromere-binding protein 1, full length, N-terminal tag (CBF1, Saccharomyces cerevisiae, UniProt P17106, residues 1-351)
Sequence of UniProt P17106 (whole entry, looked up): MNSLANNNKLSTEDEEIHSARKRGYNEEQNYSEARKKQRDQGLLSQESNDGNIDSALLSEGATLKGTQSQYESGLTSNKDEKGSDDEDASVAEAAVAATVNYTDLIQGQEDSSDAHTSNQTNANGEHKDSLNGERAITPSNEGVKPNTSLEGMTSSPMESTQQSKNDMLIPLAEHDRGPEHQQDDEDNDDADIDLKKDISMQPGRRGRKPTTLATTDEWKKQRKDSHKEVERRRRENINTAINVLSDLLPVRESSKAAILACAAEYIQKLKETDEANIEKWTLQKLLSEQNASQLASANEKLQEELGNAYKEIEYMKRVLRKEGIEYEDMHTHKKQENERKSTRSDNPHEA
Technique: protein-binding microarray
Molecule type: double-stranded DNA, one strand shown
Matrix: in vitro
Concentration: 0.8 µM
Setting: whole 60-bp probe, no competitor
Direction: higher = stronger binding
Measurement: fluorescence intensity
Shared flanks, not repeated: … GTCTTGATTCGCTTGACGCTGCTG
GAAGAGGACAGCGACACGTGCATTCATGGTAGTTAG: 4800 a.u.
CTATAAAAGCATATATACGTGATTCATATGAAGTTC: 642 a.u.
CTACCTCTCAGCCGTCACGTCTCTAGCTGAAGCTTC: 571 a.u.
GAATGAAGGCGAGATCTCATGATAGTTTTCTAATAG: 529 a.u.
TGTACGAAGCTATGTGACACAAATATAGTAGTTAGG: 588 a.u.
CTAACTACTGTAAAGCGGGTGATGCAGTAAGCATTC: 584 a.u.
CTAATGTACAATGAGAACGTGTAACGATCCAATTTC: 552 a.u.
CTAGCGATCGTTTATCACGACAAGCCCAATTTTTTC: 552 a.u.
GAATTTTCTTTGTGTCACATGTAGACTTTGATATAG: 3050 a.u.
GAAATTCACAGTACTCTCGTCAGCTTTGTCACGTAG: 572 a.u.
GAACTGTGCATCAACAAGGTGACAGAATGTTGATAG: 561 a.u.
CCTAACTACTATAAAAACGTGTAATAGCTTCGTACA: 527 a.u.
CCTAACTACTATATGCATGTGCTATAGCTTCGTACA: 682 a.u.
GAAATTTTTCATTCTGATGTCATACGACTTTTTTAG: 596 a.u.
GAATTATTGTGGATGCTGATGGCCGTGTATGGCTAG: 522 a.u.
CTATGGTCAGATCATCAGGCCAACGGCAAATGCTTC: 512 a.u.
GAAGTAAGATGATACCACGCAACTTTGTAATGATAG: 554 a.u.
CTACATAGAAGAACGAACGTGAAGGTTTGTAGCTTC: 534 a.u.
TGTACGAAGCTATTACATGTGGGTATAGTAGTTAGG: 560 a.u.
CTAAGGAACAAGAAGCACGGGTACTCGTGTTAGTTC: 747 a.u.
GAACCACGTCATGCCCACGTTTCGTTTCCATGCTAG: 692 a.u.
GAATTTGAATATATACGCCTGATGACGTACGTTTAG: 516 a.u.
CTACTTTTTCCTCGCCACGTTTTCACTCAGATCTTC: 671 a.u.
CTAACGACTATTTATCACGTCTTGGCTTAGCTATTC: 569 a.u.
CTAGGAAAAAATGCCCACGCGTATAAGAGTGGATTC: 521 a.u.

Study 4
Target: RING finger protein unkempt homolog, zinc fingers 1-6, GST-SBP tag (UNK, Homo sapiens, UniProt Q9C0B0, residues 30-357)
Sequence of UniProt Q9C0B0 (30-357, looked up): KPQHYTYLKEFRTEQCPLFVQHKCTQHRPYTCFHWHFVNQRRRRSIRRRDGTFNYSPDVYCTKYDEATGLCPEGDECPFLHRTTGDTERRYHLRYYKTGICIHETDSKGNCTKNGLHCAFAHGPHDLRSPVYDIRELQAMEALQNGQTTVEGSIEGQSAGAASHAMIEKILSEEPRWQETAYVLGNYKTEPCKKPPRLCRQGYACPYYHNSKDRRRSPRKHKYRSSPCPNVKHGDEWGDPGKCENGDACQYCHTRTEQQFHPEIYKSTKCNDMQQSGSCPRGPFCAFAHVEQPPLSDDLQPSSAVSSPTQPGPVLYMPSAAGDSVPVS
Technique: RNA Bind-n-Seq
Molecule type: RNA
Matrix: in vitro
Concentration: not given
Setting: RNA with constant flanks, human-mouse chimeric sites, ends assumed
Reference: input RNA pool
Direction: higher = stronger binding
Measurement: bound/input enrichment
Shared flanks, not repeated: GGGAGUUCUACAGUCCGACGAUC … CAACAGAGGAUUGAGCAUCA
CUGAAAAACACAGAUAUCAAAGUUGUUGAUUUUGGAAGUGCAACGUAUGACGACGAACAUCACAGUACUUUGGUGUCUACCCGGCACUACAGAGCUCCCGAGGUCAUUUUGGCUUUAGGU: 0.45 ratio
CCCUCCCCGGGCCACCCACCCCUCCCGGCUCCCCGCCGAGAUCCAGGUUUCUUCUUAUUUCAUAGCAAAUAAGAAAAAUGUUCUACGCACAUUUUGUUCUCAGUAAACGAGGGCCUCUGG: 0.661 ratio
GGGACUGAUUCAUCCCAAGGACAGGCCACCCCAUUUGAUGCCUGGACUGAUGACAGUAUGGAAGGGCCUAGUCAAAAUUUUGAAGCUGAGUCAAUUCAGGAUGCCAUGAGUAUGGAAGAG: 0.319 ratio
ACCUCCCAGGCCUGGGACACCCCACCCCCGCUUUUUGGAAAGUUUUUGGCGUUUCUUUUCCUUCCCCAGUUAGAAUUAUUACAGUUUCCCCCGCAAGGGUCUAUCGAAGGGCUUGACGGA: 25.2 ratio
UUCAAAGAAAAGGGCAGCUGUGUCAUUUCAUAAGUAACUCUGGGGGAGGGAAAUUCUGUUCUUUUGUUUUUAGUUUUCCCAAAUGAAGCCAAAGUGUGUGUUGAAGAACUGAGAAAAAAU: 0.192 ratio
CUGAAAAACACAGAUAUCAAAGUUGUUGAUUUUGGAAGUGCAACGUAUGAUGAUGAACAUCAUAGUACUUUGGUGUCUACCCGGCACUACAGAGCUCCCGAGGUCAUUUUGGCUUUAGGU: 0.457 ratio
CUGGCACUCUAUCAGAUAUAUUAAUUUUUUAAUGUAGAUAAAAUUUCAAAAAUGAAUGGCUACUUUACACGUUUAACUAGGCUCUUACUAUAUAUGUGUACAUAUGUAUAUAUAUAUAUA: 8.41 ratio
GCCACCAGAUCCCAGAAACAUGACUCUUGCUGCCUACAAAGAGAAGAUGAAGGAACUCCCGCUGGUGUCCUUGUUCUGCUCCUGCUUCCUGGCCGAUCCCCUGAAUAAGUCGUCCUACAA: 0.303 ratio
AUUGUUGAAGCGAAUCCACUUUUAGAAGCAUUUGGAAAUGCAAAGACUGUUCGCAACAAUAAUAGCAGUCGAUUUGGGAAAUUUGUAGAAAUACAUUUCAAUGAAAAGAGUUCGGUUGUU: 0.186 ratio
CACAGAGCAGCACCUACCUCCUCCUUCUUUCCACACCUGCAAACUCUUUUACUUGGGCUGAAUAUUUAGUGUAAUUACAUCUCAGCUUUUGAGGGCUCUGUGGCAAAUUCCCGGAUUAAA: 0.668 ratio
AAUUUCCUGUCAUACUUUUUAGACAUUCACAUCAGACUUACAGAGCACCUGGCCACAUUCUAGUUUUGUGUUAUUUCUCAGCUAUGGAUAUGAUCAAAUGAGAACACUGGCAGCCAGAUG: 1.02 ratio

Repeated from above (study 2):
GACGAACTGGGTTTTCGAGACGTGCTA: 0.518 z-score
TTAGGTTTCGTCTTTCGGTTAGTGCTA: 9.68 z-score
TCAAGTTTCTCCTTTGTACTGTGCTAG: 2.13 z-score
GACGAACTGGGGAGTGGAGACGTGCTA: -0.359 z-score
GGGCATTTGGTTAGCGTATAGTGCTAG: -0.435 z-score
TTAGATTTCGGGTTTCGATCAGTGCTA: 8.44 z-score
CAGTTTATTTATTTTTACATGTGCTAG: 1.06 z-score
